Assay results pooled from the literature.
Protocols differ between the studies behind these lines. Values joined by “and” are separate records of one study, mostly repeats; a detail may differ. ± marks the error that the study gave. In brackets after ≈: the same amount, converted by molar mass.

SMILES	organism	assay	system	conditions	how to read	measurement	value
CNC(=O)c1cc(Cl)cc(C)c1NC(=O)c1cc(Br)nn1-c1ncccc1Cl	Plutella xylostella		Raphanus sativus field plot	25 ppm, 168 h, 5% water-dispersible granule		larval viability	6.1% and 12.1% and 7.5%
Nc1ccn(C[C@@H](CO)OCP(=O)(O)O)c(=O)n1	herpes simplex virus 1	viral cytopathicity	HEL, KOS TK-deficient acyclovir-resistant			EC50	1.2 µM
S=C=NCCc1ccccc1	Phelipanche ramosa	seed germination, stimulant	seeds	1 µM	relative to: (±)-GR24	maximum germination stimulation	102%
O=C(NNc1cccc(Cl)c1)c1nnc(CC23CC4CC(CC(C4)C2)C3)o1	Botryosphaeria dothidea	fungal growth, inhibitor		50 µg/mL		inhibition	100%
C[N+]1(C)C2CCC1CC(OC(=O)c1c[nH]c3ccccc13)C2.[I-] (stereo not shown)	Drosophila melanogaster	liquid food feeding		40 µg/mL, first instar larvae	relative to: solvent	fluorescein ingestion	-12.4%
C[C@H]1COCCN1c1nc(NCc2cccnc2C(F)(F)F)c2cccnc2n1	Brugia malayi		SCID mouse	dose not given, 6 weeks post-treatment, dosing x14d		minimum adult worm burden	0 worms per mouse
CS(=O)(=O)OCCN(CCBr)c1c(C(=O)NCCO)cc([N+](=O)[O-])cc1[N+](=O)[O-]	Homo sapiens	cell viability, resazurin or CellTiter-Glo	sample C BCP-ALL PDX cells, ex vivo			IC50	6.82 µM
Cl.N/C(CC(O)c1cc2c(F)cc(F)cc2c2cc(C(F)(F)F)ccc12)=N\c1ccc(F)cc1 (stereo not shown)	Plasmodium berghei	Peters suppressive test	ANKA, infected mice	oral, 4 x 50 mg/kg, day 4	relative to: untreated control	parasitemia reduction	99.8%
CS(=O)(=O)CCCn1c(Cn2c(=O)n(CC(F)(F)F)c3ccncc32)cc2cc(Cl)ccc21	respiratory syncytial virus	RT-qPCR	hospitalized infants 1-24 months, nasal swab	oral, 2, 1.5 or 1 mg/kg daily, day 5, low dose by age cohort	relative to: placebo	LS mean difference vs placebo	-1.55 log10 copies/mL
CC[C@H](C)[C@H](NC(=O)[C@H](C)NC(=O)[C@H](CCCCN)NC(=O)[C@H](CC(C)C)NC(=O)[C@H](C)NC(=O)[C@@H](NC(=O)[C@H](Cc1c[nH]cn1)NC(=O)[C@H](CC(C)C)NC(=O)[C@@H](NC(=O)[C@@H](NC(=O)[C@H](CCCCN)NC(=O)[C@H](C)NC(=O)[C@H](C)NC(=O)[C@H](CO)NC(=O)[C@H](CCCCN)NC(=O)[C@H](Cc1ccccc1)NC(=O)[C@@H](NC(=O)[C@H](CCCCN)NC(=O)[C@H](CC(C)C)NC(=O)[C@H](Cc1ccccc1)NC(=O)[C@H](CO)NC(=O)[C@H](CCCCN)NC(=O)[C@H](Cc1c[nH]c2ccccc12)NC(=O)[C@H](CCCCN)NC(C)=O)[C@@H](C)O)[C@@H](C)O)C(C)C)[C@@H](C)O)C(=O)N[C@@H](CO)C(=O)N[C@@H](CO)C(N)=O	Pseudomonas aeruginosa		IPM-R	81 strains		MIC50	8 µg/mL (≈ 2.73 µM)
OC(Cn1cncn1)(Cn1cncn1)c1ccc(F)cc1F	Candida tropicalis	broth microdilution				MLC	16 ± 2 µg/mL (≈ 52.2 µM)
Cl.N=C(CC(O)c1cc2c(F)cc(F)cc2c2cc(C(F)(F)F)ccc12)Nc1ccc(F)c(F)c1 (stereo not shown)	Plasmodium berghei	Peters suppressive test	ANKA, infected mice	oral, 4 x 10 mg/kg, day 4	relative to: untreated control	parasitemia reduction	99.9%
CO[C@H]1/C=C/O[C@@]2(C)Oc3c(C)c(O)c4c(O)c(c(/C=N/N5CCN(C)CC5)c(O)c4c3C2=O)NC(=O)/C(C)=C\C=C\[C@H](C)[C@H](O)[C@@H](C)[C@@H](O)[C@@H](C)[C@H](OC(C)=O)[C@@H]1C	Mycobacterium marinum	REMA	ATCC BAA-535			MIC90	0.1 µg/mL (≈ 0.122 µM)

A few entries again:
SMILES	organism	assay	system	conditions	how to read	measurement	value
C[N+]1(C)C2CCC1CC(OC(=O)c1c[nH]c3ccccc13)C2.[I-] (stereo not shown)	Drosophila melanogaster	liquid food feeding		40 µg/mL, first instar larvae	relative to: solvent	fluorescein ingestion	-12.4%
OC(Cn1cncn1)(Cn1cncn1)c1ccc(F)cc1F	Candida tropicalis	broth microdilution				MLC	16 ± 2 µg/mL (≈ 52.2 µM)
